Measured values pooled from the literature.
Parts stem from different laboratories: compare values within a part only.
Sequence of UniProt Q15831 (whole entry, looked up): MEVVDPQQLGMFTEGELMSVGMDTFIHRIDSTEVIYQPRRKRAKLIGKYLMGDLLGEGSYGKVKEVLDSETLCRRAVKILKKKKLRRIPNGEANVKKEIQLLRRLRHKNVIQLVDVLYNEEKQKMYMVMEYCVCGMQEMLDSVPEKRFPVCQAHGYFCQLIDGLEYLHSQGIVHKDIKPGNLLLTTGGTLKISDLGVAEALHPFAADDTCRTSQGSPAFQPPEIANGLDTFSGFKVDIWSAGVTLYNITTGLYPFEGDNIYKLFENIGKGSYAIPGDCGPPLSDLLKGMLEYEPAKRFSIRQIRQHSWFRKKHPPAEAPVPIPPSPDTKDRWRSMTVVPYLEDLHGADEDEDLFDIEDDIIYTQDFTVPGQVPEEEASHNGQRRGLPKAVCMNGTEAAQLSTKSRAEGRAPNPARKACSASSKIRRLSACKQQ

Sample 1
Target: Ras GTPase-activating protein-binding protein 1, full length (G3BP1, Homo sapiens, UniProt Q13283)
Sequence of UniProt Q13283 (whole entry, looked up): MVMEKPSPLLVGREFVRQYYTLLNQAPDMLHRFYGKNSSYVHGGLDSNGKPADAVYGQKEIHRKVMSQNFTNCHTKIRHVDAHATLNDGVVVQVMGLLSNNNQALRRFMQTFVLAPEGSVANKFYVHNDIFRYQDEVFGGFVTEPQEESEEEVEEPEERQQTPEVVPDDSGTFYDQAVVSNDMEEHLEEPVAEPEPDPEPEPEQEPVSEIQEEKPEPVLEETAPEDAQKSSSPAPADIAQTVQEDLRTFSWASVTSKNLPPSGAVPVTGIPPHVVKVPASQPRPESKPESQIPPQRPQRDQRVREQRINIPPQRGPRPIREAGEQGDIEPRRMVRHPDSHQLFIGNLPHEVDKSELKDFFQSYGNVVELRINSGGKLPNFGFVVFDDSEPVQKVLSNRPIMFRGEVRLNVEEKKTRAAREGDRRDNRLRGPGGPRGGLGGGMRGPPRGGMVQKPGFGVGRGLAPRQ
Method: RNA Bind-n-Seq
Form: RNA
Medium: in vitro
Tested at: 200 nM
Setting: whole 134-nt RNA, ends assumed
With: 150 mM LiCl
Relative to: input library
Direction: higher = stronger binding
Each molecule: 7-deaza-guanosine replaces G
Shared flanks, not repeated: GGGAGUUCUACAGUCCGACGAUC … UGGAAUUCUCGGGUGUCAAGG
For `GUCCUGUGCUACACAUCGUAUGUACCGAAUCAAAUUUUUAAAUUUAAACCCCCCCAAAAAAGUAUUAUGUUACGCCGUUCGGAUCUGCAC`, the log2 enrichment was 1.22.
`CUCAAGUCCUGUGCUACACAUCGUAUGUACCGAAUCGGAAGGGGAAGGAAGGGGAAAGUAUUAUGUUACGCCGUUCGGAUCUGCACUUCC` gave a log2 enrichment of 0.149.
For `CUUCUUGCAUGCUCGGCUCCGGACAGCUACGCUUCGGCAUGACGCAGACGGGCAGGCCACCCUGUUGAACCUCCUGCUGCGGAAUUACCU`, the log2 enrichment was 0.249.
For `CAAGUCCUGUGCUACACAUCGUAUGUACCGAAUCGGGUUUUUUUGGGAGGGAGGGAAAGUAUUAUGUUACGCCGUUCGGAUCUGCACUUC`, the log2 enrichment was 0.414.
For `GCAUGAAGUAAAAACAAAUGGAAAUGCUUCGGAUAGUGGCAGGGGUGGGGGUUGCUAAGGAAAGGGUGGGAUGGGAGUGGGUAAAGAGUU`, the log2 enrichment was 0.175.
`CAAGUCCUGUGCUACACAUCGUAUGUACCGAAUCGGAAAAAAAGGUUUUUGGAGGAAAGUAUUAUGUUACGCCGUUCGGAUCUGCACUUC` gave a log2 enrichment of -0.971.
With `ACCAUGCGGGUGGGCAUCUUUGGGAAGUGGGGCAAGGGGGGGAUAGGGAGGGGGGUAACACUUUGGGAACAGGUGGUCCCAGGUCGUUUC` the log2 enrichment was 0.269.
With `UUGGCUACAAUGCAGAGACACAGAAACUACUAUGCAAGAAUGGGGAAACGCUGCUAGGAGCCGUGAACUUCUUUGUCUCUAGCAUCAACA` the log2 enrichment was -0.691.

Sample 2
Target: Histone acetyltransferase KAT6A, winged helix 1, GST fusion (KAT6A, Homo sapiens, UniProt Q92794, residues 1-85)
Method: protein binding microarray
Form: double-stranded DNA, one strand shown
Medium: in vitro
Tested at: not given
Setting: 8-mer, flanks averaged, mean of 2 arrays, mostly near background
Relative to: not given
Direction: higher = stronger binding
Residues (chain): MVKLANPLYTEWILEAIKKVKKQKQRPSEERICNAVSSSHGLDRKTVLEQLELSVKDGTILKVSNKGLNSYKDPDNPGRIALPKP
With `TGTGATAA` the E-score was -0.166.
`AAAAAAGT` gave an E-score of -0.0868.
`GCCTGGGA` gave an E-score of -0.0463.
`GATGCTCC` gave an E-score of 0.0573.
For `ATAAGTTA`, the E-score was -0.224.
For `CTATGAAG`, the E-score was -0.168.
With `CCGTAAGA` the E-score was 0.241.
`ATATACTG` has an E-score of -0.0613.

Sample 3
Target: Sal-like protein 4, full length isoform A (SALL4, Homo sapiens, UniProt Q9UJQ4, residues 1-1053)
Sequence of UniProt Q9UJQ4 (whole entry, looked up): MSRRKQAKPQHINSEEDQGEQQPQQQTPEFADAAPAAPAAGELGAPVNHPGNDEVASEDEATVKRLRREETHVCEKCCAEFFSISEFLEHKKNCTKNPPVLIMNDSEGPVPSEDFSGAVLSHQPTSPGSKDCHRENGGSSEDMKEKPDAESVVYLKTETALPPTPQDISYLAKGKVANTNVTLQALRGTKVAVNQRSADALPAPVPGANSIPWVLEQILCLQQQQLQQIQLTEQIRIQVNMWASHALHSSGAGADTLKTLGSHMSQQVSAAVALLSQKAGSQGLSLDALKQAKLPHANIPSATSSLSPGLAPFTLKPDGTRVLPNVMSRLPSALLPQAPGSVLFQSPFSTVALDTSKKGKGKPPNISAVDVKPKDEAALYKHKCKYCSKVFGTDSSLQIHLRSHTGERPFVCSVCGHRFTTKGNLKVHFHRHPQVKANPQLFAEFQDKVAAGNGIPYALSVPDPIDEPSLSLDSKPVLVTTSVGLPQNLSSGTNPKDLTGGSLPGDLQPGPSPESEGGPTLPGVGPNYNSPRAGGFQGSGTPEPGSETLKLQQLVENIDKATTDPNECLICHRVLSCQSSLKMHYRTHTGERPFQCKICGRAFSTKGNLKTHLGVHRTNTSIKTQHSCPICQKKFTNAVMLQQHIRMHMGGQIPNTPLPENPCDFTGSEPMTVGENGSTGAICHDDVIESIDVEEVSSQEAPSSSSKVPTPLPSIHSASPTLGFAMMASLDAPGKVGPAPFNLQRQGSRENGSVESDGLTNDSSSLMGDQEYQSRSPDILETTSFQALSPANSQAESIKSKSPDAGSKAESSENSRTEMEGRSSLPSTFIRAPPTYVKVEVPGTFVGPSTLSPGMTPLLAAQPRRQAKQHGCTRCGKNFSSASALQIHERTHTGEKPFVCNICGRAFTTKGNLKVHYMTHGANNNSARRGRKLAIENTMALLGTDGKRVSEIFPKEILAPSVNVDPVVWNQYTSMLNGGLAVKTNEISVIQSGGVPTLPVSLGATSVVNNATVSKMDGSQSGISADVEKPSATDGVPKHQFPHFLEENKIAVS
Method: universal PBM
Form: double-stranded DNA, one strand shown
Medium: in vitro
Tested at: 600 nM
Setting: 8-mer, flanks averaged, mean of replicates
Direction: higher = stronger binding
For `TTAATTAA`, the E-score was 0.361.
The E-score of `ACTGTTCC` is reported as -0.157.
With `CAAATGGC` the E-score was -0.0838.
The E-score of `AATGACGA` is reported as 0.205.
For `CGGACAAA`, the E-score was -0.0147.
`CTGAAAGA` has an E-score of 0.153.
The E-score of `AACTAGCA` is reported as 0.0361.
With `GTATGCGA` the E-score was 0.0665.

Other studies, line by line
The remaining activity of CCCCc1c(-c2ccc(O)cc2)[nH]c2nccnc12 is reported as 33.5% (Serine/threonine-protein kinase STK11 (STK11, Homo sapiens, UniProt Q15831); enzyme activity, inhibitor; 0.5 µM; relative to: control).

Repeated from above (sample 3):
The E-score of `ACTGTTCC` is reported as -0.157.
With `CAAATGGC` the E-score was -0.0838.
The E-score of `AATGACGA` is reported as 0.205.
For `CGGACAAA`, the E-score was -0.0147.
